# Published values pooled from the literature.
# Protocols differ between the studies behind these lines. “And” joins repeats or separate records; there may be more than shown. ± gives the spread as reported.
SMILES,cell line,test,conditions,how to read,viability
CCc1c(-c2ccccc2)c(-c2ccccc2)nn1-c1ccccc1-c1cccc(OCC(=O)O)c1,mouse bone marrow macrophages,CCK-8,"5 µM, 4000 cells",relative to: untreated,100% and 87.9% and 90.8% and 91.2% and 94.5%
[Cl-].[Cl-].[Zn+2],DU-145,MTT,concentration not given,,not toxic
CC(=O)OC[C@H]1O[C@@H]([Se]Cc2ccc3ccccc3n2)[C@H](OC(C)=O)[C@@H](OC(C)=O)[C@@H]1OC(C)=O,THP-1 macrophages (PMA-differentiated),WST-1,"50 µM, 24 h",,46.6 ± 12.8%
O=C(O)c1cc(SSc2ccc([N+](=O)[O-])c(C(=O)O)c2)ccc1[N+](=O)[O-],DU-145,MTT,concentration not given,,not toxic
c1ccc(-c2ccc(CNCC3(N4CCCC4)COC3)s2)cc1,HEK,,"30 µM, 48 h, 10% FBS",relative to: DMSO,58.6%
CCc1nc(N)nc(N)c1-c1ccc(Cl)cc1,uninfected human foreskin fibroblasts,MTT,"25 µM, 48 h",,108%
COc1ccc(Cn2cc(CO[C@@H]3O[C@H]4[C@H](OC[C@H]4O)[C@H]3O)nn2)cc1,HPAF-II,"cytotoxicity, CellTiter-Glo","up to 30 µM, 72 h",,not toxic
Fc1ccc2c(CNCC3(N4CCC(F)C4)COC3)c[nH]c2c1 (stereo not shown),HEK,,"30 µM, 48 h, 10% FBS",relative to: DMSO,35.4%
CC(=O)Nc1cccc(-n2c(=O)n(C3CC3)c(=O)c3c(Nc4ccc(I)cc4F)n(C)c(=O)c(C)c32)c1,LoVo (KRAS G13D),resazurin,"6.25 nM, 72 h, unit not given",relative to: DMSO,0.744 and 0.654
c1ccc(-c2ccc(CNCC3(N4CCCC4)COC3)o2)cc1,HEK,,"30 µM, 48 h",relative to: DMSO,0.35%
O[C@H]1[C@H](OCc2cn(Cc3ccc(F)cc3)nn2)O[C@H]2[C@@H]1OC[C@H]2O,HPAF-II,"cytotoxicity, CellTiter-Glo","up to 30 µM, 72 h",,not toxic
FC1CCN(C2(CNCc3ccc(-c4ccccc4)o3)COC2)C1 (stereo not shown),HEK,,"30 µM, 48 h, 10% FBS",relative to: DMSO,54.4%
COc1ccc2c(C[Se][C@@H]3O[C@H](CO)[C@H](O)[C@H](O)[C@H]3O)cc(=O)oc2c1,THP-1 macrophages (PMA-differentiated),WST-1,"50 µM, 24 h",,126 ± 5.5%

# A few entries again:
SMILES,cell line,test,conditions,how to read,viability
c1ccc(-c2ccc(CNCC3(N4CCCC4)COC3)s2)cc1,HEK,,"30 µM, 48 h, 10% FBS",relative to: DMSO,58.6%
